Published values pooled from the literature.
Each line is one published result; not all experiments were run side by side. Several values in a cell are separate wells, animals, samples, runs or records. Numbers after ± are the reported error. ≈ marks a conversion by molar mass, not a printed value.
Organism: Staphylococcus aureus

CCn1cc(C(=O)O)c(=O)c2cc(F)c(N3CCNCC3)cc21
inhibition zone diameter (CGMCC 1.9; concentration not given, 18 h, 37 °C): 11 mm

O=C(O)c1ccc(-n2cc(CNc3cc(Br)cc(C(F)(F)F)c3)c(-c3ccc(F)c(F)c3)n2)cc1
PI-stained cells (membrane permeabilisation, flow cytometry; ATCC 700699; 2 x MIC, 30 min): 32%

O=C(O)CN(CCN(CC(=O)O)CC(=O)O)CC(=O)O
MBC (MRSA BAA-1707): 375 µM (≈ 110 µg/mL)

COc1c(N2C[C@@H]3CCCN[C@@H]3C2)c(F)cc2c(=O)c(C(=O)O)cn(C3CC3)c12
MIC90 (broth microdilution; methicillin-resistant isolates): 2 µg/mL (≈ 4.98 µM)

CN[C@H](CC(C)C)C(=O)N[C@H]1C(=O)N[C@@H](CC(N)=O)C(=O)N[C@H]2C(=O)N[C@H]3C(=O)N[C@H](C(=O)N[C@H](C(=O)O)c4cc(O)cc(O)c4-c4cc3ccc4O)[C@H](O)c3ccc(c(Cl)c3)Oc3cc2cc(c3O[C@@H]2O[C@H](CO)[C@@H](O)[C@H](O)[C@H]2O[C@H]2C[C@](C)(N)[C@H](O)[C@H](C)O2)Oc2ccc(cc2Cl)[C@H]1O
log bacterial load (09057, female BALB/c mice, sepsis, kidney; intraperitoneal, 20 mg/kg): 4.34 log(CFU/g) and 4.97 log(CFU/g) and 4.59 log(CFU/g) and 5.22 log(CFU/g) and 4.88 log(CFU/g) and 4.67 log(CFU/g)

c1ccc(CN(CCN(Cc2ccccn2)Cc2ccccn2)Cc2ccccn2)nc1
MBEC (Calgary Biofilm Device; MRSA 1707 biofilm; 24 h): > 2000 µM

Cc1ccc(C[C@H](NC(=O)[C@@H](Cc2ccccc2)NC(=O)[C@@H](Cc2c[nH]c3ccccc23)NC(=O)[C@@H](N)CCCN)C(=O)N[C@H](Cc2ccccc2)C(=O)N[C@H](CCCNC(=N)N)C(N)=O)cc1
IC50 (ATCC 33591, methicillin-resistant): > 20 µg/mL

CC(=O)NC[C@H]1CN(c2ccc(N3CCOCC3)c(F)c2)C(=O)O1
MBC (broth microdilution; vancomycin-resistant VRS11a): 32 µM (≈ 10.8 µg/mL)

CN[C@H](CC(C)C)C(=O)N[C@H]1C(=O)N[C@@H](CC(N)=O)C(=O)N[C@H]2C(=O)N[C@H]3C(=O)N[C@H](C(=O)N[C@H](C(=O)O)c4cc(O)cc(O)c4-c4cc3ccc4O)[C@H](O)c3ccc(c(Cl)c3)Oc3cc2cc(c3O[C@@H]2O[C@H](CO)[C@@H](O)[C@H](O)[C@H]2O[C@H]2C[C@](C)(N)[C@H](O)[C@H](C)O2)Oc2ccc(cc2Cl)[C@H]1O
MIC50 (ATCC 29213; 1 strain): 1 µg/mL (≈ 0.69 µM)

COc1cc(-c2[o+]c3cc(O)cc(O)c3cc2O[C@@H]2O[C@H](CO)[C@@H](O)[C@H](O)[C@H]2O)ccc1O
IC50 (bacterial growth; ATCC 29213; 24 h): 28.7 µM

O=C(O)c1ccc(-n2cc(CNc3ccc(Cl)c(C(F)(F)F)c3)c(-c3cccc(F)c3)n2)cc1
PI-stained cells (membrane permeabilisation, flow cytometry; ATCC 700699; 1 x MIC, 30 min): 22%

O=c1cc(-c2ccc(O)c(O)c2)oc2cc(O)cc(O)c12
IC50 (bacterial growth; ATCC 29213; 24 h): > 100 µM

CN[C@H](CC(C)C)C(=O)N[C@H]1C(=O)N[C@@H](CC(N)=O)C(=O)N[C@H]2C(=O)N[C@H]3C(=O)N[C@H](C(=O)N[C@H](C(=O)O)c4cc(O)cc(O)c4-c4cc3ccc4O)[C@H](O)c3ccc(c(Cl)c3)Oc3cc2cc(c3O[C@@H]2O[C@H](CO)[C@@H](O)[C@H](O)[C@H]2O[C@H]2C[C@](C)(N)[C@H](O)[C@H](C)O2)Oc2ccc(cc2Cl)[C@H]1O
isolates inhibited (clinical isolates; ≤1 µg/mL, MIC breakpoint): 13.6%

O=c1c(O[C@@H]2O[C@H](CO)[C@@H](O)[C@H](O)[C@H]2O)c(-c2ccc(O)cc2)oc2cc(O)cc(O)c12
IC50 (bacterial growth; ATCC 29213; 24 h): > 100 µM

CN[C@H](CC(C)C)C(=O)N[C@H]1C(=O)N[C@@H](CC(N)=O)C(=O)N[C@H]2C(=O)N[C@H]3C(=O)N[C@H](C(=O)N[C@H](C(=O)O)c4cc(O)cc(O)c4-c4cc3ccc4O)[C@H](O)c3ccc(c(Cl)c3)Oc3cc2cc(c3O[C@@H]2O[C@H](CO)[C@@H](O)[C@H](O)[C@H]2O[C@H]2C[C@](C)(N)[C@H](O)[C@H](C)O2)Oc2ccc(cc2Cl)[C@H]1O
bacterial load (USA300 LAC, mice, meningitis, brain): 6.96 log CFU/brain and 7.38 log CFU/brain and 7.19 log CFU/brain and 7.4 log CFU/brain and 7.16 log CFU/brain and 7.72 log CFU/brain

CC1(C)S[C@@H]2[C@H](NC(=O)[C@H](N)c3ccccc3)C(=O)N2[C@H]1C(=O)O
inhibition zone diameter (CGMCC 1.9; concentration not given, 18 h, 37 °C): 11 mm

CN[C@H](CC(C)C)C(=O)N[C@H]1C(=O)N[C@@H](CC(N)=O)C(=O)N[C@H]2C(=O)N[C@H]3C(=O)N[C@H](C(=O)N[C@H](C(=O)O)c4cc(O)cc(O)c4-c4cc3ccc4O)[C@H](O)c3ccc(c(Cl)c3)Oc3cc2cc(c3O[C@@H]2O[C@H](CO)[C@@H](O)[C@H](O)[C@H]2O[C@H]2C[C@](C)(N)[C@H](O)[C@H](C)O2)Oc2ccc(cc2Cl)[C@H]1O
bacterial load in thigh (MRSA, neutropenic mouse thigh infection; dose not given): 6.51 log CFU and 6.38 log CFU and 6.2 log CFU and 4.6 log CFU and 7.13 log CFU and 5.94 log CFU

CN[C@H](CC(C)C)C(=O)N[C@H]1C(=O)N[C@@H](CC(N)=O)C(=O)N[C@H]2C(=O)N[C@H]3C(=O)N[C@H](C(=O)N[C@H](C(=O)O)c4cc(O)cc(O)c4-c4cc3ccc4O)[C@H](O)c3ccc(c(Cl)c3)Oc3cc2cc(c3O[C@@H]2O[C@H](CO)[C@@H](O)[C@H](O)[C@H]2O[C@H]2C[C@](C)(N)[C@H](O)[C@H](C)O2)Oc2ccc(cc2Cl)[C@H]1O
time to complete killing (time-kill; ATCC 25923; 1 µg/mL): 8 h

COC(=O)[C@H](Cc1ccccc1)NC(=O)C1COC2(CCCCC2)OC1
residual biofilm (crystal violet staining; 500 µg/mL, 24 h; relative to: untreated): 22 ± 3%

C[C@H]1O[C@H](OC[C@H]2O[C@@H](Oc3c(-c4ccc(O)cc4)oc4cc(O)cc(O)c4c3=O)[C@H](O)[C@@H](O)[C@@H]2O)[C@@H](O)[C@@H](O)[C@@H]1O
IC50 (bacterial growth; ATCC 29213; 24 h): > 100 µM

CN[C@H](CC(C)C)C(=O)N[C@H]1C(=O)N[C@@H](CC(N)=O)C(=O)N[C@H]2C(=O)N[C@H]3C(=O)N[C@H](C(=O)N[C@H](C(=O)O)c4cc(O)cc(O)c4-c4cc3ccc4O)[C@H](O)c3ccc(c(Cl)c3)Oc3cc2cc(c3O[C@@H]2O[C@H](CO)[C@@H](O)[C@H](O)[C@H]2O[C@H]2C[C@](C)(N)[C@H](O)[C@H](C)O2)Oc2ccc(cc2Cl)[C@H]1O
MIC (ATCC 29213 MSSA; LB without zinc): 1 µg/mL (≈ 0.69 µM)

CC(C)c1ccc(/C=C2\NC(=S)N(c3ccccc3)C2=O)cc1
inhibition zone diameter (ATCC 6538; concentration not given): 11 ± 0.77 mm

O=C(NCc1ccccc1)C1COC2(CCCCC2)OC1
residual biofilm (crystal violet staining; 500 µg/mL, 24 h; relative to: untreated): 45 ± 12%

CCCCCCCCCCCC(=O)N[C@H](CO)C(=O)N[C@@H]1C(=O)N[C@H](CCN)C(=O)N[C@@H](CC(=O)O)C(=O)NCC(=O)N[C@H](CC(N)=O)C(=O)N[C@H](CC(=O)O)C(=O)NCC(=O)N[C@@H](Cc2ccc(O)cc2)C(=O)N[C@@H](C(C)C)C(=O)N[C@@H](CCN)C(=O)N[C@@H](Cc2ccccc2)C(=O)O[C@@H]1C
antibacterial activity (USA300; concentration not given, compound to lipid molar ratios 0 and 5, together with: undecaprenyl pyrophosphate): decreased

For quick reference, copied from above:
O=C(O)c1ccc(-n2cc(CNc3cc(Br)cc(C(F)(F)F)c3)c(-c3ccc(F)c(F)c3)n2)cc1
PI-stained cells (membrane permeabilisation, flow cytometry; ATCC 700699; 2 x MIC, 30 min): 32%

CC(C)c1ccc(/C=C2\NC(=S)N(c3ccccc3)C2=O)cc1
inhibition zone diameter (ATCC 6538; concentration not given): 11 ± 0.77 mm

COc1c(N2C[C@@H]3CCCN[C@@H]3C2)c(F)cc2c(=O)c(C(=O)O)cn(C3CC3)c12
MIC90 (broth microdilution; methicillin-resistant isolates): 2 µg/mL (≈ 4.98 µM)
